# Published values gathered from unrelated publications.
# Numbered parts are unrelated; each lists some results of a single study. Positions count from the first letter of the parent shown.

# Sample 1 — method: DHFR PCA, deep sequencing; sample: yeast; added: (+)-ABA 2500 µM; reference: wild-type fitted maximum; direction: higher = stronger binding
# Target: ABI1, truncated, D143A, DHFR fusion (Arabidopsis thaliana)
# Setting: methotrexate growth selection, single substitutions
# Starting sequence: PYL1, truncated, DHFR fusion (Arabidopsis thaliana); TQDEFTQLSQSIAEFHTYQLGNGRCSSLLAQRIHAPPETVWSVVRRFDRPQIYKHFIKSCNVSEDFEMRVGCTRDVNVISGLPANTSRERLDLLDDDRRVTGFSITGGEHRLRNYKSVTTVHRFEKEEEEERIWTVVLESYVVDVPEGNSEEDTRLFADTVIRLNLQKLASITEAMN; partner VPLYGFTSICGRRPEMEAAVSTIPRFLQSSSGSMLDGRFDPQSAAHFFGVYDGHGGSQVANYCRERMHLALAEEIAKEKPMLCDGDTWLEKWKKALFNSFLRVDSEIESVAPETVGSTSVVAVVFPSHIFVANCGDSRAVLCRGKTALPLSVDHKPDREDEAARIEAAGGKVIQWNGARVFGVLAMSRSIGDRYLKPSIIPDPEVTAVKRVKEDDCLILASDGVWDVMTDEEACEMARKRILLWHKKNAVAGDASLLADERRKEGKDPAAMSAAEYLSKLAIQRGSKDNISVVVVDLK
Change,relative binding score
T73I,99.8%
A170K,99.7%
R24Y,93%
N61A,99.2%
Q10S,103%
L8A,90.9%
P50S,28.5%
C72Y,95.8%
V143P,1.49%
L28Q,99.7%
S140D,3.46%
V161Y,80.8%
Y18H,89.3%
K116I,73.4%
A175F,96.2%
R46H,84.2%
E127N,102%
S150G,91%
R113P,89.3%
L166F,81.1%
E14D,82.9%
D92S,86.2%
V136P,14.5%
V40P,41.6%
V76Y,87.5%

# Sample 2 — method: RNA Bind-n-Seq; form: RNA; sample: in vitro; tested at: 200 nM; setting: whole 134-nt RNA, ends assumed; added: 150 mM KCl; reference: input library; direction: higher = stronger binding
# Target: Fragile X messenger ribonucleoprotein 1, C-terminal low-complexity region (Fmr1, Mus musculus, UniProt P35922)
Sequence,log2 enrichment
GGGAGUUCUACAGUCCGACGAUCCAAGUCCUGUGCUACACAUCGUAUGUACCGAAUCAAAUUUAAACCCAAACCCAAAAAAGUAUUAUGUUACGCCGUUCGGAUCUGCACUUCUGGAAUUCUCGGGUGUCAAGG,-0.144
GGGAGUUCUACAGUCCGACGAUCCCUGUGCUACACAUCGUAUGUACCGAAUCGGGGCCCCCCGGGGCCCCCCGGCCCCCCGGGGAAAGUAUUAUGUUACGCCGUUCGGAUCUGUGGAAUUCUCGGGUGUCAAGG,-1.07
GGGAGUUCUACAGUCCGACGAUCUAACUUUAGAGGAGGAUCUGAUGGAUAUGGCAGUGGACGUGGAUUUGGGGAUGGCUAUAAUGGGGAUGGAGGAGGACCUGGAGGUGGCAAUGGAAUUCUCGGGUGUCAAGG,0.348
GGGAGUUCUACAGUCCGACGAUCAAGUCCUGUGCUACACAUCGUAUGUACCGAAUCGGUUUGGAAAAAGGUUUUUUUGGAAAGUAUUAUGUUACGCCGUUCGGAUCUGCACUUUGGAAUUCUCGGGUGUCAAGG,-0.993
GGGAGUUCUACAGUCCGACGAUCCAAGUCCUGUGCUACACAUCGUAUGUACCGAAUCGGGCCCGGCCCGGGCCCGGGGAAAGUAUUAUGUUACGCCGUUCGGAUCUGCACUUCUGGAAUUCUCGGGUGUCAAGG,-1.06
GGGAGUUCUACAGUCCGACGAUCGUCCUGUGCUACACAUCGUAUGUACCGAAUCGGGGAAAGGGGAGGGGAAAAAAAGGGGAAAGUAUUAUGUUACGCCGUUCGGAUCUGCACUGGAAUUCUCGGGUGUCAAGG,0.205
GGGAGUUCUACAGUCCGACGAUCGCAGGAAGUAAAAACAAAUGGAAAUGCUUCGGAUAGUGGCAGGGGUGGGGGUUAAAAAGGAAAGGGUGGGAUGGGAGUGGGUAAAGAGUUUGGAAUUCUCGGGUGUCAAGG,0.112
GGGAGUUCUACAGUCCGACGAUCCCUCAAGUCCUGUGCUACACAUCGUAUGUACCGAAUCGUGUGUGUGUGUGUGUAAAGUAUUAUGUUACGCCGUUCGGAUCUGCACUUCCAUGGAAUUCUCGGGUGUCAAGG,0.0742
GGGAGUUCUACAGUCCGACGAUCUCCUGUGCUACACAUCGUAUGUACCGAAUCAAAUUUUUUUAAACCCCCCCAAAUUUAAAAAAGUAUUAUGUUACGCCGUUCGGAUCUGCAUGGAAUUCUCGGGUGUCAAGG,0.515
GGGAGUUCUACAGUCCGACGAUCUGAAAAGAACUGCUCUCCAUGGAGAGAGUAACUCUGUCCUUAUUAUCGGACCCCGAGGAUCAGGAAAAACUAUGGUAAAAGCUGUUGAUUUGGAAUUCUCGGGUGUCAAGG,-1.26
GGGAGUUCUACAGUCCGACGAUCAAGUCCUGUGCUACACAUCGUAUGUACCGAAUCGGGUUUUUGGGAAAGGGAAAGGGAAAGUAUUAUGUUACGCCGUUCGGAUCUGCACUUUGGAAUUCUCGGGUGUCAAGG,0.297
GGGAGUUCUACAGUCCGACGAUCUUAGGUGGCUCCAGGAUGUAUUUAACGUGCCCUUGGUCAUCCAGAUGACGGAUGACGAGAAGUAUCUGUGGAAGGACCUGACCCUGGACCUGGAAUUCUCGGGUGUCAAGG,-0.725
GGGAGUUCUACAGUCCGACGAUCUGGGAGGUGGAUUUUGCUUAUUUUUUUAGCUCAUUUCCAGGGGUGGGAAUUUUUUUUUAAUAUGUGUCAUGAAUAAAGUUGUUUUUGAAAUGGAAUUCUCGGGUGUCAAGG,0.212
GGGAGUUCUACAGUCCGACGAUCUGGCCCUGGUGGCAUGCGGGGAGGAAGAGGUGGCCUCAUGGAUCGUGGUGGUCCCGGUGGAAUGUUCAGAGGUGGCCGUGGUGGAGACAGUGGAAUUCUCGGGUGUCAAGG,-0.237

# Sample 3 — method: aptamer microarray, sandwich; form: DNA with 2'F-ANA; sample: in vitro; tested at: 200 nM; added: Cy3 exosite-II aptamer, 400 nM; direction: higher = stronger binding; sequence: GGTTGGTGTGGTTGG
# Target: Prothrombin, mature alpha-thrombin (F2, Homo sapiens, UniProt P00734)
# Setting: whole 15-mer aptamer, many near background
Modification,mean fluorescence intensity [a.u.]
2'F-ANA at 1 7 10 11 12 13 14 15,48.7
2'F-ANA at 7 11 12 13 14,275
2'F-ANA at 1 2 3 6 8 10 12,82.6
2'F-ANA at 3 4 5 6 7 13 15,59.2
2'F-ANA at 2 3 4 5 6 8 10 11 12 13 14 15,52.6
2'F-ANA at 1 2 3 5 7 10 12 14,63.1
2'F-ANA at 1 2 5 6 7 8 12 13 15,88.5
2'F-ANA at 1 2 5 7 14 15,49.2
2'F-ANA at 1 2 3 5 8 9 11 13,55.2
2'F-ANA at 1 2 4 5 6 7 9 10 11 12 13 15,57.4
2'F-ANA at 1 4 8 13 14,53.6
2'F-ANA at 2 3 4 5 6 8 9 10 11 12 14,47
2'F-ANA at 2 3 4 5 6 8 12,216
2'F-ANA at 1 6 7 8 12 14,91.6
2'F-ANA at 5 7 9 13,56.7
2'F-ANA at 2 3 7 8 11 12 14,551

# Sample 4 — method: RNA Bind-n-Seq; form: RNA; sample: in vitro; tested at: not given; setting: RNA with constant flanks, ends assumed; reference: input RNA pool; direction: higher = stronger binding
# Target: RING finger protein unkempt homolog, zinc fingers 1-6, GST-SBP tag (UNK, Homo sapiens, UniProt Q9C0B0, residues 30-357)
# Construct (chain): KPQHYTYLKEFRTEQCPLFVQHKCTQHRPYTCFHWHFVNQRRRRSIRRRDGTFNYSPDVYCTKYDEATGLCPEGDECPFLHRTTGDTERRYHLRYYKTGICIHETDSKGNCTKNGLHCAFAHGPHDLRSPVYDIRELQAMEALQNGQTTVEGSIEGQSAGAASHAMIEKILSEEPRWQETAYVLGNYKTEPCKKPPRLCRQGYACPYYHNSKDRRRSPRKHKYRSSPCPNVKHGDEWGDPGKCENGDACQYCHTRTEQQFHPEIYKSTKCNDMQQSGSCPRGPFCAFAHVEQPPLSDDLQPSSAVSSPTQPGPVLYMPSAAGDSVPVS
Sequence,bound/input enrichment
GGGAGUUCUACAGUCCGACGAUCUGGCCACCUCCUCCUCAGAGUCUCUUCCCAAAAGAAUCCCCUAGCCAGGAUAAUGGGUGGCUCCGCCGAGGCUCAGGGAAGGAACAGGGAGAAGGGUGGCUGUGAGCUCAAGUCCCCCUCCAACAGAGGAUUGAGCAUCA,0.237 ratio
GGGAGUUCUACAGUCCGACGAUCGUGUGCAAAAGCAAGAAGUCUUGGCAAGCGAGGCACACUGGUAUUAAGAUUGUACAACAGACCGCCAUUCUCAUGGGCUGUGCUAUCUUGCCACAUCUCAGAAGUUUGGUUGAAAUCAUUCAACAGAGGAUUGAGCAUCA,0.0557 ratio
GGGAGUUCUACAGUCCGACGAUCUUCACAAGAAUGUUUGCUGACCCUCAUGGCAAGAGAGUAUUCAGCAUGUUUUUGGAGACUCCCGUGGAUUUCAUACAAGUCCACAAAGAUGAUCUUCAAGAUUGGUUGUUUGUACUGCUGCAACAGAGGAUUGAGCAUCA,0.117 ratio
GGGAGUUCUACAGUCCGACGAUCUAUGGUUAUGAGAAGCCAGAGGAACGCUGGUUACCUAUCCAUACUGUGGAAACCAUCAUGAUCCGUGUCAUUUCUAUGCUGGCAGAUCCUAAUGGAGACUCACCUGCAAAUGUAGAUGCUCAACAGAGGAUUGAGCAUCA,0.189 ratio
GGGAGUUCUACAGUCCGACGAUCCUUGUGCAUGCCCCACCUAUGCAACUGGGAUUCCCAUCCCUGCACUCGUUCAUCAAGGAACACCGUCUUCAGGUAUCCCCCAGCUUAGAGAAAGGGGCUAAGGCAGACACAGGCCUUGAUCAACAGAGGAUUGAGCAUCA,0.237 ratio
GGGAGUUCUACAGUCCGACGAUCCUGCCCAAGAAGACCGAGAGCCACCACAAGGCCAAGGGCAAGUGAGGCCCCUACCGGUCGUCCGUGCGACUUUUACAGACACCAAAGGCUCUUUUCAGAGCCACCCACAACCUCAUUAGACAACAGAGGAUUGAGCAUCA,0.284 ratio
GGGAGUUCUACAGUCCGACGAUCCAGAACUGUGGUCCAAGUUUCCAGUCUCUGAUUGUGAAGAAGGAAUUUGUUAAAGAGAAUUCCGUUAAGCUACUGAAUCCCAGAUACAACUUGCCAUUAGACAUUCAGAAUAGAAUCUUGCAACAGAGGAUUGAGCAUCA,0.835 ratio
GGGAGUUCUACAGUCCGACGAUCUGUCUGACUUGCUGCUCCAGGGAUGUCAUAGUUAAAGUUGACCAGAUCUGUCACAAAAACCGCAUCAAGUUCUUUACAGGAGAUGUUUUUGGCUACCAUGGAUACACAUUUGCCAAUCUACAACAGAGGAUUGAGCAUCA,0.116 ratio
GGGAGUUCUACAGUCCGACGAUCAGUUAUGACGGUAUAAAGCUUGAGCCUGAAAAUCCCCCACCAUAUGAAGAAGCCAUGAGUGCCGCACUAAAAACAUCGGACUCAAAGGAAGAAAUUAAAGAGCCUGAAAGUUUUAAUGCACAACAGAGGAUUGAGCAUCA,0.327 ratio
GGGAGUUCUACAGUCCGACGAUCAGGGACACAGUGUGUGUCUGAUUGGGCUUCGCAUCAAAAGCCUGACGUUCCUGUCCCUCUUACCGGGGGAGCUUUGGACACAGGACCAGUUUGAUAAAGGGCCAGGUAAGGGUUUCCACUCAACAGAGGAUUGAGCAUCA,0.0503 ratio
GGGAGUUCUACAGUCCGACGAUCAUGGUUCUUAAAGAUGUGGGAUUGAAAAAAGAAGAUAUUGCAAUGUGGGAAGUAAAUGAAGCCUUCCGUCUGGUUGUACUAGCAAACAUUAAAAUGUUGGAGAUUGAUCCCCAAAAAGUGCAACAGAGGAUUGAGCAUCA,0.359 ratio

# Excerpt of the above (sample 1):
Change,relative binding score
S150G,91%
A175F,96.2%
R46H,84.2%
E14D,82.9%
S140D,3.46%
L28Q,99.7%
V161Y,80.8%
N61A,99.2%
L166F,81.1%
P50S,28.5%
Q10S,103%
